Earlier results, collected from citations in different studies.
Each numbered part shows a few of the values that one paper quotes. ± gives the spread as reported. In brackets after ≈: the same amount, converted by molar mass.
Sequence of UniProt P25084 (whole entry, looked up): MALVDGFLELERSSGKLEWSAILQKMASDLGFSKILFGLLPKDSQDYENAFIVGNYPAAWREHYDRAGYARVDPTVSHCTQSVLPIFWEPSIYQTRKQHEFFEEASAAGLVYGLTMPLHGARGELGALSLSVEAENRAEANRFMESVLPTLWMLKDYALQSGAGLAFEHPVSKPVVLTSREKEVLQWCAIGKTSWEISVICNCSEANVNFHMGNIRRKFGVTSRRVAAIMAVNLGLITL

Set 1
Organism: Staphylococcus aureus
Structure (SMILES)	MIC [µM]
CC[C@H](C)[C@H](NC(=O)[C@@H]1CCCN1C(=O)[C@H](CS)NC(=O)[C@H](Cc1ccc(O)cc1)NC(=O)[C@@H]1CCCN1C(=O)[C@H](CC(C)C)NC(=O)[C@H](CCCNC(=N)N)NC(=O)[C@H](CO)NC(=O)[C@H](Cc1ccc(O)cc1)NC(=O)[C@H](Cc1ccccc1)NC(=O)[C@H](CC(N)=O)NC(=O)[C@H](CCCNC(=N)N)NC(=O)[C@H](CS)NC(=O)[C@H](Cc1ccc(O)cc1)NC(=O)[C@H](CO)NC(=O)CNC(=O)[C@H](CO)NC(=O)[C@@H]1CCCN1C(=O)[C@H](CC(C)C)NC(=O)[C@H](Cc1ccc(O)cc1)NC(=O)[C@H](C)NC(=O)[C@@H]1CCCN1C(=O)[C@H](CCCNC(=N)N)NC(=O)CN)C(=O)N[C@@H](CCCNC(=N)N)C(=O)NCC(=O)NCC(=O)N[C@@H](Cc1c[nH]cn1)C(=O)N[C@@H](CS)C(=O)N[C@@H](CCCNC(=N)N)C(=O)O	8 (≈ 27.6 µg/mL)
CC[C@H](C)[C@H](NC(=O)[C@H](CCCNC(=N)N)NC(=O)[C@@H]1CCCN1C(=O)[C@H](CCCNC(=N)N)NC(=O)[C@H](Cc1ccccc1)NC(=O)[C@H](Cc1c[nH]cn1)NC(=O)[C@H](CCCNC(=N)N)NC(=O)[C@H](CC(C)C)NC(=O)[C@H](CCCCN)NC(=O)CNC(=O)[C@H](CC(C)C)NC(=O)[C@H](Cc1ccccc1)NC(=O)[C@H](CCCNC(=N)N)NC(=O)CNC(=O)[C@H](Cc1ccccc1)NC(=O)[C@H](CCCNC(=N)N)NC(=O)CNC(=O)[C@H](CCCNC(=N)N)NC(=O)[C@H](CCC(N)=O)NC(=O)[C@@H](NC(=O)[C@@H](N)CC(C)C)[C@@H](C)CC)C(=O)N[C@@H](CCCCN)C(=O)N[C@@H](Cc1ccccc1)C(=O)N[C@@H](CCCCN)C(=O)NCC(=O)N[C@@H](CCCCN)C(=O)N[C@@H](C)C(=O)NCC(=O)N[C@@H](Cc1c[nH]c2ccccc12)C(=O)N[C@H](C(=O)N[C@H](C(=O)NCC(=O)O)C(C)C)[C@@H](C)O	64 (≈ 242 µg/mL)
CC(C)[C@H](NC(=O)CNC(=O)CNC(=O)[C@H](Cc1ccc(O)cc1)NC(=O)[C@H](CS)NC(=O)[C@@H](NC(=O)[C@H](Cc1c[nH]c2ccccc12)NC(=O)[C@H](Cc1ccccc1)NC(=O)[C@H](CS)NC(=O)[C@H](Cc1c[nH]c2ccccc12)NC(=O)[C@@H](N)CCCNC(=N)N)C(C)C)C(=O)N[C@@H](CS)C(=O)N[C@@H](Cc1ccc(O)cc1)C(=O)N[C@@H](CCCNC(=N)N)C(=O)N[C@@H](CCCNC(=N)N)C(=O)N[C@@H](CS)C(=O)N[C@@H](CCCNC(=N)N)C(=O)O	> 128

Further values, each from its own experiment
Structure (SMILES)	target or system	test	test system	setting	measurement	result
COc1ccc(Nc2nc(Nc3ccc(OCC[18F])cc3)ncc2Br)cc1			S180 tumour-bearing mice, brain	intravenous, 60 min	tissue uptake	1.51 ± 0.12 %ID/g
CCC(=O)OC1C(=O)C2(C)C(O)CC3OCC3(OC(C)=O)C2C(OC(=O)c2cccc(OC(F)(F)F)c2)C2(O)CC(OC(=O)C(O)C(C=C(C)C)NC(=O)OC(C)(C)C)C(C)=C1C2(C)C (stereo not drawn)	CFPAC-1	cytotoxicity			IC50	0.75 nM
CCCCCCCCCC(=O)CC(=O)Nc1ccccc1	lasR (Pseudomonas aeruginosa, UniProt P25084)	reporter gene, antagonist, lasI-lacZ reporter		10 µM	inhibition	55%

A few entries again (set 1):
Structure (SMILES)	MIC [µM]
CC[C@H](C)[C@H](NC(=O)[C@H](CCCNC(=N)N)NC(=O)[C@@H]1CCCN1C(=O)[C@H](CCCNC(=N)N)NC(=O)[C@H](Cc1ccccc1)NC(=O)[C@H](Cc1c[nH]cn1)NC(=O)[C@H](CCCNC(=N)N)NC(=O)[C@H](CC(C)C)NC(=O)[C@H](CCCCN)NC(=O)CNC(=O)[C@H](CC(C)C)NC(=O)[C@H](Cc1ccccc1)NC(=O)[C@H](CCCNC(=N)N)NC(=O)CNC(=O)[C@H](Cc1ccccc1)NC(=O)[C@H](CCCNC(=N)N)NC(=O)CNC(=O)[C@H](CCCNC(=N)N)NC(=O)[C@H](CCC(N)=O)NC(=O)[C@@H](NC(=O)[C@@H](N)CC(C)C)[C@@H](C)CC)C(=O)N[C@@H](CCCCN)C(=O)N[C@@H](Cc1ccccc1)C(=O)N[C@@H](CCCCN)C(=O)NCC(=O)N[C@@H](CCCCN)C(=O)N[C@@H](C)C(=O)NCC(=O)N[C@@H](Cc1c[nH]c2ccccc12)C(=O)N[C@H](C(=O)N[C@H](C(=O)NCC(=O)O)C(C)C)[C@@H](C)O	64 (≈ 242 µg/mL)
